Results from different studies.
Each line is one published result; not all experiments were run side by side. ± gives the spread as reported.
Sequence of UniProt Q99895 (whole entry, looked up): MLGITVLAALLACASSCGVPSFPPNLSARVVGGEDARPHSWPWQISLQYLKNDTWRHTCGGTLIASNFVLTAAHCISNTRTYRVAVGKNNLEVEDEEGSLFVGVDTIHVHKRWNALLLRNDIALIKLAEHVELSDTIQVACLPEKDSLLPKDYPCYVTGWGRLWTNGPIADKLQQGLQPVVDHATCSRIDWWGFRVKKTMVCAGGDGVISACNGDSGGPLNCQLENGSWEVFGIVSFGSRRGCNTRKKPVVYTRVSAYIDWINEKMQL

Compound | target or system | assay | test system | conditions | endpoint | value
N=C(N)NCCC[C@@H]1NC(=O)[C@H](CCCCNC(=O)CCC(NC(=S)Nc2ccc(CC3CN(CC(=O)O)CCN(CC(=O)O)CCN(CC(=O)O)CCN3CC(=O)O)cc2)C(=O)NCCCC[C@@H]2NC(=O)[C@@H](Cc3ccc(O)cc3)NC(=O)[C@H](CC(=O)O)NC(=O)CNC(=O)[C@H](CCCNC(=N)N)NC2=O)NC(=O)[C@@H](Cc2ccc(O)cc2)NC(=O)[C@H](CC(=O)O)NC(=O)CNC1=O (some centres unmarked) [scandium-44 labelled] | – | PET imaging ROI | female athymic nude mice, U-87 MG xenograft, liver | intravenous, 4 h | tissue uptake | 1.46 ± 0.57 %ID/g
CC(C)C[C@@H]1NC(=O)[C@H](CC(C)C)NC(=O)[C@H](CC(C)C)NC(=O)[C@H](Cc2c[nH]c3ccccc23)NC(=O)[C@@H]2CSSC[C@@H]3NC(=O)[C@H]([C@@H](C)O)NC(=O)[C@H](CC(N)=O)NC(=O)[C@H](CSSC[C@@H](C(=O)N[C@@H](CC(=O)O)C(=O)N[C@@H](CCC(N)=O)C(=O)O)NC1=O)NC(=O)[C@H](CCCCN)NC(=O)[C@H](CC(=O)O)NC(=O)[C@H](CCCCN)NC(=O)[C@H](Cc1ccccc1)NC(=O)[C@H]([C@@H](C)O)NC(=O)[C@H]([C@@H](C)O)NC(=O)CNC(=O)[C@@H]1CCCN1C(=O)[C@H](CCC(=O)O)NC(=O)[C@@H](NC(=O)[C@@H](NC(=O)[C@@H](NC(=O)[C@H](CCC(=O)O)NC(=O)[C@H](CO)NC(=O)CN)C(C)C)[C@@H](C)O)CSSC[C@H](NC(=O)[C@H](CCCNC(=N)N)NC3=O)C(=O)NCC(=O)N[C@@H](CO)C(=O)N[C@@H](CC(=O)O)C(=O)NCC(=O)N[C@@H](CCCCN)C(=O)N[C@@H](CO)C(=O)N[C@@H](C)C(=O)N[C@@H](Cc1c[nH]c3ccccc13)C(=O)N2 | Chymotrypsin-C (Homo sapiens, UniProt Q99895) | substrate, LC-MS | – | 15 µM, pH 8.0, 25 °C | time to full digestion | ≤ 2 days
CC(=O)N[C@@H](CC(C)C)C(=O)N[C@H](C(=O)N[C@@H](Cc1ccccc1)C(=O)N[C@]1(C)CCCCCC/C=C/CCC[C@@](C)(C(=O)N[C@@H](C)C(=O)N[C@@H](C)C(=O)N[C@@H](C)C(=O)N[C@@H](C)C(=O)N[C@@H](C)C(=O)N[C@H](C)C(N)=O)NC(=O)[C@H](CC(C)C)NC(=O)[C@H](CCCCNC(=O)CCNC(=O)C[C@@H]2N=C(c3ccc(Cl)cc3)c3c(sc(C)c3C)-n3c(C)nnc32)NC(=O)[C@H](C)NC(=O)[C@H](Cc2c[nH]c3ccccc23)NC(=O)[C@H](Cc2ccc(O)cc2)NC(=O)[C@H](C)NC1=O)[C@@H](C)O | – | – | C57BL/6 mouse, blood | intravenous, 3 mg/kg twice weekly, 3 weeks | lymphocytes | 71.1%
CSCC[C@@H]1NC(=O)[C@@H]2CCCN2C(=O)[C@H](C(C)C)NC(=O)[C@@H](NC(=S)Nc2ccc(CC3CN(CC(=O)O)CCN(CC(=O)O)CCN3CC(=O)O)cc2)CSSC[C@@H](C(=O)O)NC(=O)[C@H](C)NC(=O)[C@H](CCCNC(=N)N)NC(=O)[C@H](Cc2ccc(O)cc2)NC(=O)[C@H]([C@@H](C)O)NC1=O (some centres unmarked) [gallium-68 labelled] | – | PET imaging | mouse bearing B16-F10 tumour | intravenous, 1 h | tumour to blood ratio | 1.54 ± 0.31
CC(C)C[C@H](NC(=O)[C@@H](N)Cc1ccccc1)C(=O)N[C@@H](C)C(=O)N[C@H]1CSCc2cccc(n2)CSC[C@@H](C(=O)N[C@H](C(=O)NCC(=O)N[C@@H](CO)C(=O)N[C@@H](Cc2c[nH]c3ccccc23)C(=O)N[C@@H](CCCCNC(=O)CN2CCN(CC(=O)O)CCN(CC(=O)O)CCN(CC(=O)O)CC2)C(N)=O)[C@@H](C)O)NC(=O)[C@H](Cc2c[nH]cn2)NC(=O)[C@H]([C@@H](C)O)NC(=O)[C@H](CCC(=O)O)NC(=O)[C@@H]2CCCN2C1=O [gallium-68 labelled] | – | PET/CT imaging | C57BL/6J mouse, B16-F10 tumour, tumour | iv, 3.7 MBq, 1 h | tumour uptake | 4.5 %ID/g
CC[C@H](C)[C@@H]([C@@H](CC(=O)N1CCC[C@H]1[C@H](OC)[C@@H](C)C(=O)N[C@H](C)[C@@H](O)c1ccccc1)OC)N(C)C(=O)[C@@H](NC(=O)[C@H](C(C)C)N(C)C(=O)OCc1ccc(NC(=O)[C@H](CCCNC(N)=O)NC(=O)[C@@H](NC(=O)CCCCCN2C(=O)CC(SC[C@H](NC(=O)[C@H](CC(=O)O)NC(=O)[C@H](Cc3ccc(O)cc3)NC(=O)[C@H](Cc3c[nH]c4ccccc34)NC(=O)[C@@H](N)CCCNC(=N)N)C(=O)O)C2=O)C(C)C)cc1)C(C)C (some centres unmarked) | – | – | C57BL/6 mouse, healthy, heart | intraperitoneal, 2.5 mg/kg, 0.167 h | concentration | not detected
CC[C@H](C)[C@H](NC(=O)[C@H](CO)NC(=O)[C@H](Cc1ccc(O)cc1)NC(=O)[C@H](Cc1ccc(O)cc1)NC(=O)[C@H](CC(N)=O)NC(=O)CNC(=O)[C@H](CO)NC(=O)[C@H](Cc1ccc(O)cc1)NC(=O)[C@H](CO)NC(=O)[C@H](CO)NC(=O)[C@H](CC(N)=O)NC(=O)COCCOCCNC(=O)CN1CCN(CC(=O)O)CCN(CC(=O)O)CCN(CC(=O)O)CC1)C(=O)N[C@@H](CC(C)C)C(N)=O [copper-64 labelled] | – | dynamic PET | KPC mouse Ptf1a-CreER tdTomato, metastases | intravenous, 4.6 MBq/mouse, 12.5 min, 84 d after tamoxifen | tissue uptake | 14.1 %ID/mL
CCCC[C@H](NC(=O)CN1CCC(NC(=O)CN2CCN(CC(N)=O)CCN(CC(N)=O)CCN(CC(N)=O)CC2)CC1)C(=O)N[C@H]1CC(=O)NCCCC[C@@H](C(N)=O)NC(=O)[C@H](Cc2c[nH]c3ccccc23)NC(=O)[C@H](CCCNC(=N)N)NC(=O)[C@@H](Cc2ccccc2)NC(=O)[C@H](Cc2c[nH]cn2)NC1=O [lead-203 labelled] | – | SPECT/CT | male C57BL/6J mice, B16-F10 tumour, tumour | intravenous, 20 pmol, 2 h, 203Pb-labelled | SUVmean | 2.35 SUV

For quick reference, copied from above:
Compound | target or system | assay | test system | conditions | endpoint | value
CC[C@H](C)[C@H](NC(=O)[C@H](CO)NC(=O)[C@H](Cc1ccc(O)cc1)NC(=O)[C@H](Cc1ccc(O)cc1)NC(=O)[C@H](CC(N)=O)NC(=O)CNC(=O)[C@H](CO)NC(=O)[C@H](Cc1ccc(O)cc1)NC(=O)[C@H](CO)NC(=O)[C@H](CO)NC(=O)[C@H](CC(N)=O)NC(=O)COCCOCCNC(=O)CN1CCN(CC(=O)O)CCN(CC(=O)O)CCN(CC(=O)O)CC1)C(=O)N[C@@H](CC(C)C)C(N)=O [copper-64 labelled] | – | dynamic PET | KPC mouse Ptf1a-CreER tdTomato, metastases | intravenous, 4.6 MBq/mouse, 12.5 min, 84 d after tamoxifen | tissue uptake | 14.1 %ID/mL
